{"data": "Measurements gathered from unrelated publications", "rep R3428I 3C-like proteinase": "Replicase polyprotein 1ab, 3C-like proteinase (rep, Severe acute respiratory syndrome-related coronavirus, UniProt P0C6X7, R3428I)", "note": "Lines come from different studies, so protocols differ. ± gives the spread as reported."}
{"Compound": "CC(C)C[C@H](NC(=O)[C@@H](NC(=O)CCc1ccccc1)C(C)C)C(=O)N[C@@H](C[C@@H]1CCNC1=O)C(=O)c1nccs1", "target": "rep R3428I 3C-like proteinase", "assay": "enzyme activity, inhibitor, HPLC", "setting": "60 min, 37 °C, added: substrate 111 µM", "IC50": "13 µM"}
{"Compound": "O=C(/C=C/c1ccccc1)N[C@@H](COC(=O)c1cccnc1)C(=O)NC1CCCCC1", "target": "rep R3428I 3C-like proteinase", "assay": "enzyme activity, inhibitor, HPLC substrate depletion", "setting": "pH 4.0", "IC50": "180 µM"}
{"Compound": "CC(C)[C@H](NC(=O)OCc1ccccc1)C(=O)N[C@@H](CCC(=O)O)C(=O)N[C@@H](C[C@@H]1CCNC1=O)C(=O)c1nc2ccccc2s1", "target": "rep R3428I 3C-like proteinase", "assay": "enzyme activity, inhibitor, HPLC", "setting": "60 min, 37 °C, added: substrate 111 µM", "IC50": "> 1600 µM"}
{"Compound": "O=C(/C=C/c1ccccc1)N[C@H](CO)C(=O)NC1CCCCC1", "target": "rep R3428I 3C-like proteinase", "assay": "enzyme activity, inhibitor, HPLC substrate depletion", "setting": "pH 4.0", "IC50": "> 1600 µM"}
{"Compound": "CC[C@H](CC[C@@H](C)[C@H]1CC[C@H]2[C@@H]3CC=C4C[C@@H](O)CC[C@]4(C)[C@H]3CC[C@]12C)C(C)C", "target": "Replicase polyprotein 1ab, 3C-like proteinase (rep, Severe acute respiratory syndrome-related coronavirus, UniProt P0C6X7)", "assay": "3CLpro cleavage, inhibitor, luciferase reporter", "system": "Vero", "IC50": "1210 µM"}
{"Compound": "CC[C@H](C(=O)Nc1cc(NC2CCNCC2)ccc1C)n1cc(Cl)cc2nc(SCc3ccc(F)cc3)nc1-2", "target": "Replicase polyprotein 1ab, papain-like protease (rep, Severe acute respiratory syndrome-related coronavirus, UniProt P0C6X7)", "assay": "enzyme activity", "IC50": "4.62 ± 0.996 µM"}
{"Compound": "COc1c(C)c2c(c(O)c1C/C=C(\\C)CCC(=O)O)C(=O)OC2", "target": "Replicase polyprotein 1ab, papain-like protease (rep, Severe acute respiratory syndrome-related coronavirus, UniProt P0C6X7, E1707R)", "assay": "protease activity, inhibitor", "setting": "added: peptide substrate 20 µM", "IC50": "260 ± 21 µM"}
{"Compound": "COc1cc(/C=C/C(=O)OC[C@H](NC(=O)/C=C/c2ccccc2)C(=O)NC2CCCCC2)cc(OC)c1OC", "target": "rep R3428I 3C-like proteinase", "assay": "enzyme activity, inhibitor, HPLC substrate depletion", "setting": "pH 4.0", "IC50": "170 µM"}
{"Compound": "CC(C)C[C@H](NC(=O)[C@@H](NC(=O)OCc1ccccc1)C(C)C)C(=O)N[C@@H](Cc1c[nH]cn1)C(=O)c1nccs1", "target": "rep R3428I 3C-like proteinase", "assay": "enzyme activity, inhibitor, HPLC", "setting": "60 min, 37 °C, added: substrate 111 µM", "IC50": "260 µM"}
{"note": "Excerpt of the above:"}
{"Compound": "CC[C@H](C(=O)Nc1cc(NC2CCNCC2)ccc1C)n1cc(Cl)cc2nc(SCc3ccc(F)cc3)nc1-2", "target": "Replicase polyprotein 1ab, papain-like protease (rep, Severe acute respiratory syndrome-related coronavirus, UniProt P0C6X7)", "assay": "enzyme activity", "IC50": "4.62 ± 0.996 µM"}
